Assay results from different studies.
Numbered parts are unrelated; each lists some results of a single study. Positions count from the first letter of the parent shown.

Series 1
Target: UBE2A UBC core domain (UniProt P49459)
Chain of UniProt P49459 (whole entry, looked up): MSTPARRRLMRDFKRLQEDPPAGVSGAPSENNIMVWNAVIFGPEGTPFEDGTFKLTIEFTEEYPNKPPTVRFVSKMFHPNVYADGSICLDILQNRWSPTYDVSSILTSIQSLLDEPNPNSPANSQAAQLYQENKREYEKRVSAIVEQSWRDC
Technique: yeast two-hybrid
Medium: yeast
Notes: mostly zero background
Relative to: not given
Direction: higher = stronger interaction
Quantity: lacZ reporter activity
B1: RNF166 RING domain (UniProt Q96A37); chain GDSGLEAQYTCPICLEVYHRPVAIGSCGHTFCGECLQPCLQVPSPLCPLCRLPFDPKKVDK
B2: RNF187 RING domain (UniProt Q5TA31); chain ALPAGPAEAACALCQRAPREPVRADCGHRFCRACVVRFWAEEDGPFPCPECADDCWQRAVEP
B3: RNF31 RING domain (UniProt Q96EP0); chain AFLRRLLAQECAVCGWALPHNRMQALTSCECTICPDCFRQHFTIALKEKHITDMVCPACGRPDLTDDTQLL
B4: TRIM22 RING domain (UniProt Q8IYM9); chain VKVDIEKEVTCPICLELLTEPLSLDCGHSFCQACITAKIKESVIISRGESSCPVCQTRFQPGNLRP
B5: TRIM37 RING domain (UniProt O94972); chain SVESIAEVFRCFICMEKLRDARLCPHCSKLCCFSCIRRWLTEQRAQCPHCRAPLQLRELVN
AEADPLGRFTCPVCLEVYEKPVQVPCGHVFCSACLQECLKPKKPVCGVCRSALAPGVRAV (RNF114 RING domain (UniProt Q9Y508)): 0
QVQSRTKIEECVVCSDKKAAVLFQPCGHMCACENCANLMKKCVQCRAVVERRVPFI (MIB1 RING domain (UniProt Q86YT6)): 0
B1 (RNF166 RING domain): 0
MNDVLENELQCIICSEYFIEAVTLNCAHSFCSYCINEWMKRKIECPICRKDIKSKTYSL (RNF8 RING domain (UniProt O76064)): 0
B2 (RNF187 RING domain): 0
B3 (RNF31 RING domain): 0
YCEMGSTFQLCKICAENDKDVKIEPCGHLMCTSCLTAWQESDGQGCPFCRCEIKGTEPII (CBLB RING domain (UniProt Q13191)): 0
B4 (TRIM22 RING domain): 0
PEELAVNNDDCAICWDSMQAARKLPCGHLFHNSCLRSWLEQDTSCPTCRMSLNIADNNR (AMFR RING domain (UniProt Q9UKV5)): 0
B5 (TRIM37 RING domain): 0
YPEEVDDDLICHICLQALLDPLDTPCGHTYCTLCLTNFLVEKDFCPMDRKPLVLQHCKK (LNX1 RING domain (UniProt Q8TBB1)): 0

Series 2
Target: PABPC1L2, full length, GST fusion (mouse, UniProt A0ABA7IW68)
Technique: RNAcompete
Molecule type: RNA
Medium: in vitro
Tested at: 20 nM
Notes: 7-mer, probes averaged, single round
Relative to: mean of 7-mers
Direction: higher = stronger binding
Quantity: 7-mer Z-score
Residues (chain): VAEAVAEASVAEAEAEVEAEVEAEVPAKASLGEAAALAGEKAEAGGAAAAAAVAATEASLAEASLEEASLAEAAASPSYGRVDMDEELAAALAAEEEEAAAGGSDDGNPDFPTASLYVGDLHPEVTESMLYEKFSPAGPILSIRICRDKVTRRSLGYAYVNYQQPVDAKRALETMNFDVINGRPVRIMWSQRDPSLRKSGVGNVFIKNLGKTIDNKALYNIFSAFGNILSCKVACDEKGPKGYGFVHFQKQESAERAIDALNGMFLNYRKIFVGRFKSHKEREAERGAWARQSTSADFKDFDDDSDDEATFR
UACGUUA: -0.19
UUUCAGA: -0.206
CCCAACA: -0.179
AGUCUGA: -0.177
ACCUUGG: -0.233
AAUCCGU: -0.166
UUGUCGC: -0.456
CCGGGCC: -0.3

Series 3
Target: CCNE1, cyclin fold, Cln2 fusion (human)
Technique: yeast growth competition, sequencing
Medium: yeast
Notes: strong parent motif
Relative to: not given
Direction: higher = stronger binding
Quantity: normalised enrichment score
Starting sequence: viral docking peptide; KGVKRKLFAEDSS
KGVKRKLFAEDYS [S12Y]: 7.02
KGYKRKLFAEDSS [V3Y]: 6.74
KLVKRKLFAEDSS [G2L]: 6.71

Series 4
Target: Sodium-dependent dopamine transporter (SLC6A3, Homo sapiens, UniProt Q01959)
Chain of UniProt Q01959 (whole entry, looked up): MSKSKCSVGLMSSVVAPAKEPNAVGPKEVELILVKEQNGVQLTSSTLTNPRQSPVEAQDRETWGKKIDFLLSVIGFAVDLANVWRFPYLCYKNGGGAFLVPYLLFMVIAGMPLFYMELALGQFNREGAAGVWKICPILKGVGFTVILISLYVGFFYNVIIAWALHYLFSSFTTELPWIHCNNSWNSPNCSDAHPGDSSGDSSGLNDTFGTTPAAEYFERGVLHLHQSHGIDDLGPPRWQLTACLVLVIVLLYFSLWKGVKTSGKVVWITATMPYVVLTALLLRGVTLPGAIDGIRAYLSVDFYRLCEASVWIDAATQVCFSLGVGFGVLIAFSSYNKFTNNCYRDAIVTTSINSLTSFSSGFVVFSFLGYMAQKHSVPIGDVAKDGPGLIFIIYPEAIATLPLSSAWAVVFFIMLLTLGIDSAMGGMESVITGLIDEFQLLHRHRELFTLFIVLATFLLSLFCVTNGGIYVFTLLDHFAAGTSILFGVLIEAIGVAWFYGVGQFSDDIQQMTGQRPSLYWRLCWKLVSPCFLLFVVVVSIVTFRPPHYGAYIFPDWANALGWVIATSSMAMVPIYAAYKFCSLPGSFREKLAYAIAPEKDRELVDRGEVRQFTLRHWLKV
Observed: binding
Technique: radioligand binding
Tested at: 10 µM
Quantity: inhibition
CC1=C(C#N)C(c2ccc3c(c2)c(NC(=O)c2ccccc2C)nn3C)C(C#N)=C(C)N1: -13.2%
CN1CCN(C(=O)C(C)(C)c2ccc(C(=O)Nc3cn4cc(-c5ccncc5)ccc4n3)cc2)CC1: 8.33%
CC(C)CC(=O)N1CCc2nc(-c3ccc(Br)cc3)nc(N(C)Cc3ccccc3)c2C1: 15.3%
